# Results of several laboratories.
# Compare with care: the assays were run in different laboratories. “And” joins repeats or separate records; there may be more than shown. ± gives the spread as reported.
# rep main protease: Replicase polyprotein 1ab, main protease (rep, Severe acute respiratory syndrome coronavirus 2, UniProt P0DTD1)
# Spike glycoprotein: Spike glycoprotein (Severe acute respiratory syndrome coronavirus 2, UniProt P0DTC2)
SMILES,tested on,test,system,conditions,scale,measurement,value
O=C(c1cncc2[nH]cnc12)N1CC[C@]2(CCCCN(C(=O)[C@H]3C[C@@H]4C=CC[C@@H](C4)C3)C2)C1,rep main protease,"enzyme activity, inhibitor",,"5 µM, run 2",,inhibition,11.4%
Nc1ncnc2c1cnn2C1CCN(C(=O)c2ccc(S(=O)(=O)F)cc2)CC1,"Calmodulin-sensitive adenylate cyclase (cya, Bacillus anthracis, UniProt P40136)",,,,,kinact,0.00433 s⁻¹
Cn1cnc(Cn2c(=O)[nH]/c(=N\c3cc4cn(C)nc4cc3Cl)n(Cc3cc(F)c(F)cc3F)c2=O)n1,,,"human, mild renal impairment","oral, 375 mg, decreased GFR TEAE, moderate severity",,patients with adverse event,0%
COc1ccc(-c2oc3ccccc3c(=O)c2N)cc1N,rep main protease,"viral replication, Gluc reporter",SARS-CoV-2,20 µM,,inhibition,-1.9%
O=C(c1ccc(=O)[nH]c1)N1CCCC[C@H](C2CN(C(=O)c3cncc4[nH]ccc34)C2)C1,rep main protease,"enzyme activity, inhibitor",,"5 µM, mean of runs",,inhibition,16.7%
CCCCCCCCCC(C)CCC(C)C(=O)OC (centres unmarked),"Spike glycoprotein, RBD (Severe acute respiratory syndrome coronavirus 2, UniProt P0DTC2)",binding,,concentration not given,,activity,inactive
Nc1ncnc2c([C@@H]3N[C@H](CO)[C@@H](O)[C@H]3O)c[nH]c12,Marburg virus,viral replication,"HeLa, Angola",12.5 µM,,inhibition,90.4%
CC[C@H](CC[C@@H](C)[C@H]1CC[C@H]2[C@@H]3CC=C4C[C@@H](O[C@@H]5O[C@H](CO)[C@@H](O)[C@H](O)[C@H]5O)CC[C@]4(C)[C@H]3CC[C@]12C)C(C)C,Spike glycoprotein,"binding, BLI",,,,kon,1.94e+06 M⁻¹ s⁻¹
CC[C@H](C)[C@H](NC(=O)[C@@H]1CCCN1C(=O)[C@H](C)NC(=O)[C@@H]1CSSC[C@@H]2NC(=O)[C@H](CC(=O)O)NC(=O)[C@H](CCCNC(=N)N)NC(=O)[C@H](CCC(=O)O)NC(=O)[C@H](CCCNC(=N)N)NC(=O)CNC(=O)[C@H](CC(=O)O)NC(=O)[C@@H]3CSSC[C@H](NC(=O)[C@H](CCC(=O)O)NC(=O)[C@H](CC(C)C)NC(=O)CNC(=O)[C@H](C)NC(=O)[C@H](CSSC[C@H](NC(=O)[C@H](Cc4ccccc4)NC(=O)[C@@H](N)CO)C(=O)N[C@@H](CC(C)C)C(=O)N[C@@H](C(C)C)C(=O)N[C@@H](CCCCN)C(=O)N[C@@H](Cc4c[nH]c5ccccc45)C(=O)N[C@@H](CCCCN)C(=O)N[C@@H](CCC(N)=O)C(=O)N3)NC2=O)C(=O)N[C@@H](Cc2c[nH]c3ccccc23)C(=O)N[C@@H](CCCCN)C(=O)N[C@@H](CCCNC(=N)N)C(=O)N[C@@H](CO)C(=O)NCC(=O)N[C@@H](CC(N)=O)C(=O)N[C@@H](CCCCN)C(=O)N[C@@H](CO)C(=O)N[C@@H](CO)C(=O)N[C@@H](C(C)C)C(=O)N1)C(=O)N[C@H](C(=O)O)[C@@H](C)O,"Acid-sensing ion channel 1 (ASIC1, Homo sapiens, UniProt P78348)",outside-out patch clamp,HEK-293T ASIC1a knockout,"1 µM, wild type",,deactivation time constant,79 ± 18 ms
C=CCc1cc(OC)c2c(c1)OCO2,rep main protease,"reporter gene (Gaussia luciferase), inhibitor",,20 µM,,inhibition,0.796%
CC[C@H](C)[C@H](NC(=O)[C@H](CC(C)C)NC(=O)[C@H](Cc1c[nH]c2ccccc12)NC(=O)[C@H](CCC(N)=O)NC(=O)[C@@H](NC(=O)[C@H](Cc1ccccc1)NC(=O)[C@H](C)NC(=O)[C@H](CCCCNC(=O)COCCOCCNC(=O)COCCOCCNC(=O)CC[C@H](NC(=O)CCCCCCCCCCCCCCCCCCC(=O)O)C(=O)O)NC(=O)[C@H](CCC(N)=O)NC(=O)[C@H](C)NC(=O)[C@@H](NC(=O)[C@H](CCCCN)NC(=O)[C@H](CC(=O)O)NC(=O)[C@H](CC(C)C)NC(=O)C(C)(C)NC(=O)[C@@H](NC(=O)[C@H](CO)NC(=O)[C@H](Cc1ccc(O)cc1)NC(=O)[C@H](CC(=O)O)NC(=O)[C@H](CO)NC(=O)[C@@H](NC(=O)[C@H](Cc1ccccc1)NC(=O)[C@@H](NC(=O)CNC(=O)[C@H](CCC(=O)O)NC(=O)C(C)(C)NC(=O)[C@@H](N)Cc1ccc(O)cc1)[C@@H](C)O)[C@@H](C)O)[C@@H](C)CC)[C@@H](C)CC)C(C)C)C(=O)N[C@@H](C)C(=O)NCC(=O)NCC(=O)N1CCC[C@H]1C(=O)N[C@@H](CO)C(=O)N[C@@H](CO)C(=O)NCC(=O)N[C@@H](C)C(=O)N1CCC[C@H]1C(=O)N1CCC[C@H]1C(=O)N1CCC[C@H]1C(=O)N[C@@H](CO)C(N)=O,,refers to: treatment-emergent back pain,healthy subjects,"0.5 mg, multiple ascending dose",,subjects with adverse event,16.7%
CCC[C@H](N[C@H]1CCc2cc(F)cc(F)c2C1)C(=O)Nc1cn(C(C)(C)CNCC(C)(C)C)cn1,rep main protease,"reporter gene (mKate2), inhibitor",,20 µM,,inhibition,-0.0529%
O=C(NC[C@@H]1CC2(CCOCC2)CN1C(=O)c1ccc2c(c1)C(=O)NC2)c1cccnn1,rep main protease,"enzyme activity, inhibitor",,"5 µM, run 2",,inhibition,9.9%
C=C[C@@H]1C[C@]1(NC(=O)[C@@H]1C[C@@H]2CN1C(=O)[C@H](C(C)(C)C)NC(=O)O[C@@H]1C[C@H]1CCCCCc1nc3ccc(OC)cc3nc1O2)C(=O)NS(=O)(=O)C1CC1.O,rep main protease,mKate2 reporter,,20 µM,,inhibition,1.25%
O=c1c(O)c(-c2ccc(O)cc2O)oc2cc(O)cc(O)c12,Spike glycoprotein,"binding, BLI",,,,kon,337 M⁻¹ s⁻¹
CCc1c(C(=O)C(N)=O)c2c(OCC(=O)O)cccc2n1Cc1ccccc1,Daboia russelii venom phospholipase A2,"enzyme activity, inhibitor",PB population,"10 µM, together with: NOB substrate",reference: venom alone,remaining activity,21.5% and 20.5% and 13.7%
Cc1[nH]nc2c(C(=O)N3CCC4(CCC[C@H]4NC(=O)C4=CN=C5NNN=C5C4)CC3)cccc12,rep main protease,"enzyme activity, inhibitor",,5 µM,,inhibition,9.1%
